Measured values from different studies.
Each line is one published result; not all experiments were run side by side. ± marks the error that the study gave.

Compound	test	test system	conditions	measurement	value
NC[C@@]1(CC(=O)O)[C@@H]2CC[C@H]3C[C@@H]2[C@@H]1C3		human, severe renal impairment, plasma	oral, 20 mg single dose, geometric mean	apparent volume of distribution	48.8 L
O=C(Nc1nc2cccc(-c3ccc(CN4CCS(=O)(=O)CC4)cc3)n2n1)C1CC1	population PK bootstrap median	human	oral, dose not given	apparent central volume	106 L
NCC(=O)Nc1cncc(-c2nn3c(=O)cc(N4CCNCC4)nc3s2)c1	population PK model	human	subcutaneous, dose not given, geometric mean	apparent peripheral volume (Vp/F)	392 L
NC(=S)NN=Cc1ncccc1N		human smokers, plasma	oral, geometric mean, total	apparent oral clearance	164 L/h
Cn1cc(-c2cn3nccc3c(-c3cnn([C@]4(CC#N)C[C@@H](C#N)C4)c3)n2)cn1		healthy humans fasted, plasma	10 mg single dose, geometric mean	apparent volume Vz/F	226 L
O=C(O)CCC(=O)O.[2H]C([2H])([2H])Oc1cc(C)c2[nH]ccc2c1CN1CC[C@@H](C2CC2)C[C@H]1c1ccc(C(=O)O)cc1		healthy humans, fasted, plasma	oral, 200 mg, single dose	apparent volume of distribution (Vd/F)	67.2 L
C=CC(=O)N(C)CCOc1c(N)ncnc1-c1cc(F)cc(NC(=O)c2ccc(C3CC3)cc2F)c1C		human, whole blood	oral, 400 mg, single ascending dose	apparent clearance CL/F	543 L/h
COc1cc2c(Nc3ccc(Br)cc3F)ncnc2cc1OCC1CCN(C)CC1		human patients, plasma	65 mg/m^2, day 42	apparent oral clearance	67 ± 26 mL/min/m²
COc1cc(C(=O)NC2CCN(C)CC2)c(F)cc1Nc1ncc(C(F)(F)F)c(Oc2cccc3c2C(=O)N(C)C3)n1		human patients, plasma	oral, 100 mg single dose, geometric mean	apparent oral clearance CL/F	123 mL/min
C[C@H](Cn1cnc2c(N)ncnc21)OCP(=O)(O)O	population PK model	human, plasma	oral, reduced model bootstrap median	apparent clearance	43.3 L/h
CCCOc1ccc([C@H]2CNC(=O)N2c2ccc3[nH]cnc3c2)cc1		human volunteers fasted, plasma	oral capsule, 200 mg single dose, crossover, geometric mean	apparent terminal half-life	3.4 h
C=C[C@@H]1C[C@]1(NC(=O)[C@@H]1C[C@@H](Oc2ncc(OC)c3ccc(Cl)cc23)CN1C(=O)[C@@H](NC(=O)OC(C)(C)C)C(C)(C)C)C(=O)NS(=O)(=O)C1CC1	population PK base model	human	oral, dose not given	apparent volume of distribution	55 L
Cc1cc(C)c(CNC(=O)c2cc(Cl)c3c(c2C)O[C@@](C)([C@H]2CC[C@H](N(C)C)CC2)O3)c(=O)[nH]1		human, plasma	oral, 200 mg, cycle 1 day 15, mean	apparent volume of distribution (total)	268 L
NC(=O)N1c2ccccc2CC(=O)c2ccccc21	population PK modelling	human patients, plasma	oral, weight-scaled, with back-conversion	apparent clearance	216 L/h
Cn1ncnc1[C@H]1c2n[nH]c(=O)c3cc(F)cc(c23)N[C@@H]1c1ccc(F)cc1		human patients, plasma	600 µg/m2/day	apparent clearance at steady state	4.2 ± 2 L/h
Cl.[2H]C([2H])([2H])CC(=O)c1cnc(NC(=O)C2CC2)cc1Nc1cccc(-c2ncn(C([2H])([2H])[2H])n2)c1OC		human, non-fasted	oral, 60 mg once daily, day 14, multiple dose, tablet, geometric mean	apparent volume at steady state	203 L
COc1ccc(-n2nc(C(N)=O)c3c2C(=O)N(c2ccc(N4CCCCC4=O)cc2)CC3)cc1		human, plasma	oral, dose not given, Full population PK model	apparent peripheral volume	24.3 ± 1.93 L
CNC(=O)c1ccc(N2C(=S)N(c3ccc(C#N)c(C(F)(F)F)c3)C(=O)C2(C)C)cc1F	population PK base model	human, male	oral, dose not given	apparent central volume	23.1 L
Cc1cc(C)c(CNC(=O)c2cc(Cl)c3c(c2C)O[C@@](C)([C@H]2CC[C@H](N(C)C)CC2)O3)c(=O)[nH]1	population PK model	human	oral, dose not given	apparent peripheral volume V3/F	2950 L

For quick reference, copied from above:
Compound	test	test system	conditions	measurement	value
C=C[C@@H]1C[C@]1(NC(=O)[C@@H]1C[C@@H](Oc2ncc(OC)c3ccc(Cl)cc23)CN1C(=O)[C@@H](NC(=O)OC(C)(C)C)C(C)(C)C)C(=O)NS(=O)(=O)C1CC1	population PK base model	human	oral, dose not given	apparent volume of distribution	55 L
Cl.[2H]C([2H])([2H])CC(=O)c1cnc(NC(=O)C2CC2)cc1Nc1cccc(-c2ncn(C([2H])([2H])[2H])n2)c1OC		human, non-fasted	oral, 60 mg once daily, day 14, multiple dose, tablet, geometric mean	apparent volume at steady state	203 L
